Measured values of several laboratories.
± marks the error that the study gave.

C[C@@H]1NC(=O)[C@H](CCCCNC(=O)CO/N=C/C(=O)NCCCC[C@@H]2NC(=O)[C@@H](Cc3ccccc3)NC(=O)[C@H](CC(=O)O)NC(=O)CNC(=O)[C@H](CCCNC(=N)N)NC2=O)NC(=O)CNC(=O)[C@@H]2CCCN2C(=O)[C@H](CCCCNC(=O)CO/N=C/C(=O)NCCCC[C@@H]2NC(=O)[C@@H](Cc3ccccc3)NC(=O)[C@H](CC(=O)O)NC(=O)CNC(=O)[C@H](CCCNC(=N)N)NC2=O)NC(=O)[C@H](CCCCNC(=O)CCNC(=O)CCNC(=O)CCNC(=O)[C@H](CCCCN)NC(=O)[C@H](Cc2ccccc2)NC(=O)CNC(=O)CN2CCCNCCNCCCNCC2)NC(=O)[C@H](CCCCNC(=O)CO/N=C/C(=O)NCCCC[C@@H]2NC(=O)[C@@H](Cc3ccccc3)NC(=O)[C@H](CC(=O)O)NC(=O)CNC(=O)[C@H](CCCNC(=N)N)NC2=O)NC(=O)CNC(=O)[C@@H]2CCCN2C(=O)[C@H](CCCCNC(=O)CO/N=C/C(=O)NCCCC[C@@H]2NC(=O)[C@@H](Cc3ccccc3)NC(=O)[C@H](CC(=O)O)NC(=O)CNC(=O)[C@H](CCCNC(=N)N)NC2=O)NC1=O [copper-64 labelled] — tissue uptake (normal mice, blood; intravenous, 0.74 MBq, 3 h post-injection): 0.15 ± 0.01 %ID/g
CC(C)c1nc(N(C)S(C)(=O)=O)nc(-c2ccc(F)cc2)c1/C=C/[C@@H](O)C[C@@H](O)CC(=O)O — incidence of infections and infestations (healthy human subjects; oral, dose not given, study CL-0537 safety set): 0%
CN(C)C(=O)c1cc2cnc(Nc3ccc(N4CCNCC4)cn3)nc2n1C1CCCC1 — patients with adverse event (refers to: Leukopenia, AESI; human, HR+/HER2− advanced breast cancer; oral, dose not given, grade 3, CTCAE v4.03): 15.5%
CCNCCCNC/C=C\CNCCCNCC — drug-related TEAE, nervous system (human, advanced solid tumours; intravenous, dose not given; baseline: patients): 21.7%
CC(=O)c1c(C)c2cnc(Nc3ccc(C4CCN(CCS(C)(=O)=O)CC4)cn3)nc2n(C2CCCC2)c1=O — patients with any TEAE (HR+/HER2- advanced breast cancer patients; oral, 25 mg): 100%
O=C(Nc1ccc2c(c1)B(O)OC2)c1ccc(OCc2ccc(Cl)cc2)cc1 — acceptor concentration (PAMPA; pre-coated trilayer membrane; 200 µM, 5 h, pH 7.4, acceptor plate, PBS): 19 ± 0.8 µM
Nc1ncnc2c1ncn2[C@@H]1O[C@@H]2COP(=O)([S-])O[C@@H]3[C@H](O)[C@@H](COP([O-])(=S)O[C@H]2[C@H]1O)O[C@H]3n1cnc2c(N)ncnc21.[Na+].[Na+] (some centres unmarked) — neutrophil percentage (non-tumor-bearing mice, blood; intravenous, 1 mg/kg, toxicity study): 16 ± 7.89%
Clc1cc2c(cc1Cl)Oc1c(ccc(Cl)c1Cl)O2 — dose fraction in permeate (ultrafiltration; cow milk whey; 2000 nM nominal in whole milk): 13.8%
Cn1nc(NS(C)(=O)=O)c2c(Cl)ccc(-n3c([C@H](Cc4cc(F)cc(F)c4)NC(=O)Cn4nc(C(F)F)c5c4C(F)(F)[C@@H]4C[C@H]54)nc4nc(OCCC(F)(F)F)ccc4c3=O)c21 — drug-related adverse events (refers to: total bile acids increased; human; 1875 mg, powder in bottle): 17%
CC(=O)NCC(=O)NCC(=O)N[C@H](C(=O)N[C@@H](Cc1ccc(O)cc1)C(=O)N[C@@H](CO)C(=O)N[C@H]1CSSC[C@@H](C(=O)N[C@@H](CCCNC(=N)N)C(=O)N2CCC[C@H]2C(=O)N[C@@H](CCC(N)=O)C(=O)N[C@@H](CCCNC(=N)N)C(=O)NCC(=O)NCCC(=O)N[C@@H](CCCCNC(=O)CN(CC(=O)NCCCC[C@H](NC(=O)CCNC(=O)CNC(=O)[C@H](CCCNC(=N)N)NC(=O)[C@H](CCC(N)=O)NC(=O)[C@@H]2CCCN2C(=O)[C@H](CCCNC(=N)N)NC(=O)[C@@H]2CSSC[C@H](NC(=O)[C@H](CO)NC(=O)[C@H](Cc3ccc(O)cc3)NC(=O)[C@@H](NC(=O)CNC(=O)CNC(C)=O)[C@@H](C)O)C(=O)N[C@@H](Cc3c[nH]cn3)C(=O)N[C@@H](Cc3ccccc3)C(=O)NCC(=O)N[C@@H](C)C(=O)N[C@@H](CC(C)C)C(=O)N[C@@H]([C@@H](C)O)C(=O)N[C@@H](Cc3c[nH]c4ccccc34)C(=O)N[C@@H](C(C)C)C(=O)N2)C(N)=O)C(=O)CCN)C(N)=O)NC(=O)[C@H](C(C)C)NC(=O)[C@H](Cc2c[nH]c3ccccc23)NC(=O)[C@H]([C@@H](C)O)NC(=O)[C@H](CC(C)C)NC(=O)[C@H](C)NC(=O)CNC(=O)[C@H](Cc2ccccc2)NC(=O)[C@H](Cc2c[nH]cn2)NC1=O)[C@@H](C)O — serum concentration (MSD immunoassay; BALB/c mice, healthy female, serum; subcutaneous, 0.08 mg/kg, 0 h, LLOQ 2.0 ng/mL): not detected
CCCC1CCC(C2CCC(c3ccc(F)c(F)c3)CC2)CC1 (centres unmarked) — mean serum concentration (human mother-newborn pairs, cord serum): 0.29 ng/mL
CN1CCN(S(=O)(=O)c2cc([N+](=O)[O-])ccc2N(CCOS(C)(=O)=O)CCOS(C)(=O)=O)CC1 — amylase (naive NOD/SCID mice, pooled blood; intraperitoneal, 25 mg/kg, week 4): 676 U/L
CN(C(=O)n1cnc(-c2ccc[n+]([O-])c2)c1)C1CCCCC1 — concentration (Wistar rat, pons; oral, 10 mg/kg, 1 h, single dose): 372 ± 50.3 ng/g
COc1cc2c(Oc3ccc4[nH]c(C)cc4c3F)ccnc2cc1OCC1(N)CC1 — Cholesterol elevation incidence (paediatric refractory sarcoma patients; 10 mg): 25%
